# Assay results collected from several papers.
# A part holds a random share of what one study measured.

# Sample 1 — method: RNA Bind-n-Seq; molecule type: RNA; medium: in vitro; tested at: 1 µM; notes: whole 134-nt RNA, ends assumed; added: 150 mM KCl; baseline: input library; reading: higher = stronger binding
# Target: Ras GTPase-activating protein-binding protein 1, C-terminal RGG region (G3BP1, Homo sapiens, UniProt Q13283)
# Sequence of UniProt Q13283 (whole entry, looked up): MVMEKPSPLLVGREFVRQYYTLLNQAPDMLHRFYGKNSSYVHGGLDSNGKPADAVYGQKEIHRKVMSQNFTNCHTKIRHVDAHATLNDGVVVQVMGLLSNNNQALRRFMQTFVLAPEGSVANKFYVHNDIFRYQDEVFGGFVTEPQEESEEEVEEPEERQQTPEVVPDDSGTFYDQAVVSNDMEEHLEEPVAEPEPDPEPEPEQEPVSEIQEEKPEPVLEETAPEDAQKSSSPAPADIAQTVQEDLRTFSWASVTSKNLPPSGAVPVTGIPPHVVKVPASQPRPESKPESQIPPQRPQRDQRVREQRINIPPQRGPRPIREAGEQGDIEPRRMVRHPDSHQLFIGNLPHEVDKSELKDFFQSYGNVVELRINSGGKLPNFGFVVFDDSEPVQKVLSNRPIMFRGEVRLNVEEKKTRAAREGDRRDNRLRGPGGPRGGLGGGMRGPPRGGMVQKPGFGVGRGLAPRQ
# All sequences stand within: GGGAGUUCUACAGUCCGACGAUC … UGGAAUUCUCGGGUGUCAAGG
Oligonucleotide,log2 enrichment
ACCAUGCAGGUGGGCAUCUUUGGGAAGUGGGGCAAGGGGGAGAUAGGGAGGGGGGUAACACUUUGGGAACAGGUGGUCCCAGGUCGUUUC,2.2
GUCCUGUGCUACACAUCGUAUGUACCGAAUCGGGGUUUUUGGGGUUUUUGGGUUUUUGGAAAGUAUUAUGUUACGCCGUUCGGAUCUGCA,-0.672
GCAGGAAGUAAAAACAAAUGGAAAAAAUUCGGAUAGUGGCAGGGGUGGGGGUUGCUAAGGAAAGGGUGGGAUGGGAGUGGGUAAAGAGUU,1.28
AAGUCCUGUGCUACACAUCGUAUGUACCGAAUCGGGUUUGGGUUUUUUUGGGAGGGAAAGUAUUAUGUUACGCCGUUCGGAUCUGCACUU,0.696
UCCUGUGCUACACAUCGUAUGUACCGAAUCGGGGAAAAAAAGGGGUUUUUGGGGAGGGGAAAGUAUUAUGUUACGCCGUUCGGAUCUGCA,1.67
CUCAAGUCCUGUGCUACACAUCGUAUGUACCGAAUCGGUGGAAAAAAAGGAGGAAAGUAUUAUGUUACGCCGUUCGGAUCUGCACUUCCA,-1.2
CCUGUGCUACACAUCGUAUGUACCGAAUCGGGGUUUUUUUGGGGUGGGGAAAAAAAGGGGAAAGUAUUAUGUUACGCCGUUCGGAUCUGC,0.145
AAGUCCUGUGCUACACAUCGUAUGUACCGAAUCGGGGAAAAGGGGAAAAGGAAAAGGAAAGUAUUAUGUUACGCCGUUCGGAUCUGCACU,-1.52
CUGUGCUACACAUCGUAUGUACCGAAUCAAAUUUUUUUAAACCCCCCCAAACCCCCCCAAAAAAGUAUUAUGUUACGCCGUUCGGAUCUG,-1.17
ACCAUGCAGGUGGGCAACUUUGGGAAGUGGGGCAAGGGGGGGAUAGGGAGGGGGGUAACACUUUGGGAACAGGUGGUCCCAGGUCGUUUC,-1.22
CAAGUCCUGUGCUACACAUCGUAUGUACCGAAUCGGUUUGGUUUGGUUUUUUUGGAAAGUAUUAUGUUACGCCGUUCGGAUCUGCACUUC,-1.67
CUCAAGUCCUGUGCUACACAUCGUAUGUACCGAAUCGGAAAGGAAAGGAAAGGGAAAGUAUUAUGUUACGCCGUUCGGAUCUGCACUUCC,-1.41
CAAGUCCUGUGCUACACAUCGUAUGUACCGAAUCGGGGAAAGGGAAAGGGAAAGGAAAGUAUUAUGUUACGCCGUUCGGAUCUGCACUUC,-1.13
CAAGUCCUGUGCUACACAUCGUAUGUACCGAAUCGGGUUUGGGGUUUGGGUUUGGAAAGUAUUAUGUUACGCCGUUCGGAUCUGCACUUC,-0.897

# Sample 2 — method: RNA Bind-n-Seq; molecule type: RNA; medium: in vitro; tested at: 365 nM; baseline: no-protein control; reading: higher = stronger binding
# Target: RNA binding protein fox-1 homolog 2, RRM domain, GST-SBP tag (RBFOX2, Homo sapiens, UniProt O43251-10, residues 100-194)
# Notes: natural RNA segment, single round, ends assumed
# All sequences stand within: GGGAGUUCUACAGUCCGACGAUC … UGGAAUUCUCGGGUGCCAA
# Residues (chain): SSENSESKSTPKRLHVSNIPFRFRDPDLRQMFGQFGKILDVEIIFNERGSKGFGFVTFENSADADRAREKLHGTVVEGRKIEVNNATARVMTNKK
Oligonucleotide,RBNS enrichment (R)
CGUGCAAGCUGCUGUGGGAGGGUAAGCACCCCUCCCAGCACAGAAACCUUUCCUUUGAAUCAAUAAAGUUUUAUGUCGGCCUGAGUGUCUUGUGAGUUUGUGUACAGUCA,1.35
UCCCUUCCAUCUGCCUGGUGCAGGAAGCAGGGCCGUCAUGCCAACGCGCCCAGUCCAGGAUCUGCCUCCUAUCAGGGAUCCCAACUCUGAAUUUCCUGCCACUAACAUAC,0.392
GAAACAGGUUUCUCUCAGUGGCACAUUUUGCUUUUUCUUAGCCCUCAAAUACAUUGCCUCGGCAUGAACAUUAUUGUUAAUAUAAAUUGCACAUGGUCAUCGAGUGAAUU,0.307
GUGGGAUACUUUCUGCACCACUCUGAGUGAUUGUUACCUUGUAACCACUAGUAAGCUUUGUUCAUGCAGCUCAUAGUCCUCCCAAACAUAUGGGGAAUGUGUGUUUAUGU,0.551
GGCCAGUGUUCAGCAGGAUCAUGCCUUCUGUGUCUGGAAGAGGCGGCAGAGGCAACAGUGUUUAGGAUUUGGGUUAUCAUAAGGUGUUAAGAGUCCCUUGUUAAAGGGGC,0.401
AGCGUUUUCGACCUUAUUAAACCUCUUUUAGUGCUUCUAAGCAAGUCAGGUCUGUGGCUCUGAGGCCUUCACUUAGAGCUGUCAGUGUGAUUUCCAGGAUGAGUCAGGGU,0.594
GAAUGUAGUUCCCUACUCAGGCUUUCGUAGUGAUUAGCUUACUAAGGAACUGAAAAUGGGCCCCUUGUACAAGCUGAGCUGCCCCGGAGGGAGGGAGGAGUUCCCUGGGC,0.718
GCCCACAUGGGAAAGAGAUAAAAUGUACAAAUUAGAAAAAUGUGGAUAAACAGUCAAACCUUUAUCCUCUAGAAUUUUGGCAAUGUUGACUAAGAAACAGAGUCCAAGCA,1.37
AUAUUUAUGGGGGGAGAACUUACAUUGUGAAACUUCUGUACAUUAAUUAUUAUUGCUGUUGUUAUUUUACAAGGGUCUAGGGAGAGACCCUUGUUUGAUUUUAGCUGCAG,0.908
UUCUCCGUUCCCCUUCAUCUCCGUCCCCCUCUUUGAAGCUGUCCCCAUCUCAGUGUCAGACCAGCCUUCUCCUCAGCUGACCACCCUCCUCUGACCCACGCCCCCUCCUU,1.02
GUCUGCCAAAGAUACAAGAAUAUGCAAAGUCCCUCUUACCCCCCUCCUUCCCUCAAGUCUUAGUUGGUUUGAGAGCCAGGGAUAUGGAUCCAGGGUGCUGUUGCAGGGUC,0.547
CCGGCUAUGAAAGGGAGCGAGCCCCUCGGCUCUGGAGGCAAUCAAGCAGACAUAGAAGAGCCAAGAGUCCAGGAGGCCCUGGUCCUGGCCUCCUUCCCCGUACUUUGUCC,0.378

# Sample 3 — method: competition protein-binding microarray; molecule type: double-stranded DNA, one strand shown; medium: in vitro; tested at: 2 µM; added: Cbf1 competitor, 0.05 µM; reading: higher = stronger binding; all sequences stand within: … GTCTTGATTCGCTTGACGCTGCTG
# Target: Phosphate system positive regulatory protein PHO4, full length, GST-tagged (PHO4, Saccharomyces cerevisiae, UniProt P07270, residues 1-312)
# Notes: whole 60-bp probe, lowest competitor level
# Target sequence (chain): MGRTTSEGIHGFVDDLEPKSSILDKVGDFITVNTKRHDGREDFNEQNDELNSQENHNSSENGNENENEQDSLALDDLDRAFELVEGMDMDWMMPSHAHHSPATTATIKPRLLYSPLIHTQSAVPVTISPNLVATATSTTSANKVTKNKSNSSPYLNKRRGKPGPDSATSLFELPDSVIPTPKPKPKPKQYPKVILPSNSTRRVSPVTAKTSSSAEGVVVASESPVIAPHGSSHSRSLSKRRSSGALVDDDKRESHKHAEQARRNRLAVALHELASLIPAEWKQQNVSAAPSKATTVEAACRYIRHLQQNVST
Oligonucleotide,fluorescence intensity [a.u.]
CATCTTATTTACGAACTCGTGATGGTTTTGTAAAAT,9050
CATCGTACAGGGGTTCATGTGCTGGTGCAGTAATTC,6840
AGGGCGGGAATTTCACATGTGGCTTTTTGCATAATC,8060
CTAACGAAGGTTTAACACGTGTTTTACAAGCCAAGT,15700
CATACCCAACCTTTTCACGTGCAGTAAGATATTTGT,17100
ATACTCGCTCGCGGCCACGGGTCAACCCGATTGGGA,8280
CGGGGTTAAGTTTGTCACGTGTTTTGCTTGCAGCAG,13500
TTATAAGGTCGTTACTATCTTTATTGCAGTTAACAG,3370
TTTAGTGTCTCTGCCTATGTGATGGGTCTGTTTCCT,3470
CTTCTGTAAATTTGAATAGTGGGTGGACGCGCCCCG,4430
CCGCCCGATATATATCACATGTAGCTGTGTAATATG,8180
GCATTAGGTACGATGCACGGGTGCACTGTTAAAAAA,8740
TGCGCAACAACTTGCATAGTGGGTGTATGTCTAGAA,5430
CTAACGAAGGTTTGTCACCCGACTTACAAGCCAAGT,3260
CTTTCCCGATCTTGGCTAGTGGGTGTAGCACATTTG,4410
CTAACGAAGGTTTGTCACGCGACTTACAAGCCAAGT,8230
CAGGCAAAAGCGTTACACGTGACGGTGGTATGATCG,14000
CGTCCTAGTGATTGTCTCGTGGGTGCCATGAGGAAG,12300
AGGGCTGAGGCAGCGCACGTGTGAGCGCCGCTGAGG,17100
GTCTTGTCTCATTGGTTAGTGGGTGTCCCCACTTCA,5670
CTTCTGTAAATTTGAAACGTGGGTGGACGCGCCCCG,13200
TTGTTTGCCTCCGTCGGTGTGACGGAGTTGTGGCCT,3570

# Sample 4 — method: RNAcompete; molecule type: RNA; medium: in vitro; tested at: 20 nM; notes: 7-mer, probes averaged, single round; baseline: mean of 7-mers; reading: higher = stronger binding
# Target: PABPC1L2, full length, GST fusion (mouse, UniProt A0ABA7IW68)
# Residues (chain): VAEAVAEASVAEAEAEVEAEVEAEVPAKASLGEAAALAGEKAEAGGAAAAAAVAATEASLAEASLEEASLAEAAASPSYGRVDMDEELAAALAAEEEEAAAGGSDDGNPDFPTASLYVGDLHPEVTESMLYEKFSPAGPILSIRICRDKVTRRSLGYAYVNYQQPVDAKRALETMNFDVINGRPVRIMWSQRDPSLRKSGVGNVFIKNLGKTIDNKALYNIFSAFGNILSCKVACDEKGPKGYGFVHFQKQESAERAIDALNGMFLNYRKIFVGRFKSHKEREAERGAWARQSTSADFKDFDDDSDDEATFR
Oligonucleotide,7-mer Z-score
CGUCCAA,-0.168
GUGGGUA,0.202
UUUUGCG,-0.331
GUCGUGG,-0.151
GUAGAUC,-0.197
UUGUCUU,-0.463
GAGCUGG,0.117
GCCAACA,0.00436
GAGCCGG,-0.132
CUUACAU,-0.286
ACGCGAG,-0.217
CAUGCUU,-0.133
CGAUCUC,-0.316
CUGGUGU,-0.175
GUUCGCU,-0.51
GGCAUGU,0.155
GAAGAUA,0.138
GCAGAGU,0.0533
AGCCUCG,-0.409
UAGUACU,-0.144
UUCAUCA,-0.356
CCACUUU,-0.162
AUGAACG,0.0823
CUUUUUG,0.177
UAACAUU,-0.188

# Repeated from above (sample 1):
Oligonucleotide,log2 enrichment
CAAGUCCUGUGCUACACAUCGUAUGUACCGAAUCGGUUUGGUUUGGUUUUUUUGGAAAGUAUUAUGUUACGCCGUUCGGAUCUGCACUUC,-1.67
AAGUCCUGUGCUACACAUCGUAUGUACCGAAUCGGGUUUGGGUUUUUUUGGGAGGGAAAGUAUUAUGUUACGCCGUUCGGAUCUGCACUU,0.696
ACCAUGCAGGUGGGCAACUUUGGGAAGUGGGGCAAGGGGGGGAUAGGGAGGGGGGUAACACUUUGGGAACAGGUGGUCCCAGGUCGUUUC,-1.22
GCAGGAAGUAAAAACAAAUGGAAAAAAUUCGGAUAGUGGCAGGGGUGGGGGUUGCUAAGGAAAGGGUGGGAUGGGAGUGGGUAAAGAGUU,1.28
CCUGUGCUACACAUCGUAUGUACCGAAUCGGGGUUUUUUUGGGGUGGGGAAAAAAAGGGGAAAGUAUUAUGUUACGCCGUUCGGAUCUGC,0.145
GUCCUGUGCUACACAUCGUAUGUACCGAAUCGGGGUUUUUGGGGUUUUUGGGUUUUUGGAAAGUAUUAUGUUACGCCGUUCGGAUCUGCA,-0.672
CUGUGCUACACAUCGUAUGUACCGAAUCAAAUUUUUUUAAACCCCCCCAAACCCCCCCAAAAAAGUAUUAUGUUACGCCGUUCGGAUCUG,-1.17
CAAGUCCUGUGCUACACAUCGUAUGUACCGAAUCGGGUUUGGGGUUUGGGUUUGGAAAGUAUUAUGUUACGCCGUUCGGAUCUGCACUUC,-0.897
